Measured values pooled from the literature.
± marks the error that the study gave.

SMILES = CC(=C(c1ccc(O)cc1)c1ccc(Cl)cc1)c1ccc(Cl)cc1; cell line = UACC-257; test = cell growth or viability, SRB; GI50 = 940 nM
SMILES = COc1cc2c(cc1C)NC(=O)C2=Cc1c(Cl)[nH]c2c1ccc1ccccc12; cell line = NCI-60 cell panel; setting = 48 h, panel mean; GI50 = 370 nM
SMILES = CC(=O)Nc1cc(COc2c(Cl)cc(CC(N)C(=O)O)cc2Cl)c2oc(-c3ccccc3)nc2c1 (stereo not drawn); cell line = HEK293 expressing human LAT1; test = cell proliferation; setting = 72 h; GI50 = > 30000 nM
SMILES = C[n+]1ccc(/C=N/NC(=O)c2cncc(C(=O)N/N=C/c3cc[n+](C)c4ccccc34)n2)c2ccccc21; cell line = T98G multidrug-resistant; test = CellTiter-Glo; setting = 96 h; GI50 = 12000 ± 500 nM
SMILES = COC1CN([C@H]2CC[C@H]([C@@]3(C)Oc4c(Cl)cc(C(=O)NCc5c(SC)cc(C)[nH]c5=O)c(C)c4O3)CC2)C1; cell line = UMUC3; test = cell growth or viability, ATP luminescence; setting = 12 days; GI50 = > 1000 nM
SMILES = C=CC(=O)N1CCc2ccc(-n3c(=O)ccc4cnc5ccc(-c6cnn(C)c6)cc5c43)cc21; cell line = BCWM1; test = cell growth or viability; setting = 48 h; GI50 = 120 nM
SMILES = CCN1CCN(Cc2ccc(C(=O)Nc3ccc(C)c(NCc4cnc5[nH]ccc5c4OC)c3)cc2C(F)(F)F)CC1; cell line = SAOS-2; test = cell growth or viability; setting = 48 h; GI50 = 390 nM
SMILES = CC/C=C\C/C=C\C/C=C\C/C=C\C/C=C\C/C=C\CCC(=O)Nc1ccn(C2OC(CO)C(O)C2(F)F)c(=O)n1 (stereo not drawn); cell line = UACC-257; test = cell growth or viability, SRB; GI50 = 518 nM
SMILES = CCC(=C(c1ccc(Cl)cc1)c1ccc(OCCCN(C)C)cc1)c1ccc(OC)cc1; cell line = KM12; test = cell growth or viability, SRB; GI50 = 2550 nM
